Measured values pooled from the literature.
A part holds a random share of what one study measured. Positions count from the first letter of the parent shown.
Chain of UniProt Q38831 (whole entry, looked up): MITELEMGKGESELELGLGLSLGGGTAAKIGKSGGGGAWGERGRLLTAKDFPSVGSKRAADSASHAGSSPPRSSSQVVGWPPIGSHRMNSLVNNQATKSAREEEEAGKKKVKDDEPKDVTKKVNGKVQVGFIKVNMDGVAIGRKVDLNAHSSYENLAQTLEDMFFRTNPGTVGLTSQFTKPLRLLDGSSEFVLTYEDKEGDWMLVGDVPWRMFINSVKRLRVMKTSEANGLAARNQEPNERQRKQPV
Chain of UniProt O24408 (whole entry, looked up): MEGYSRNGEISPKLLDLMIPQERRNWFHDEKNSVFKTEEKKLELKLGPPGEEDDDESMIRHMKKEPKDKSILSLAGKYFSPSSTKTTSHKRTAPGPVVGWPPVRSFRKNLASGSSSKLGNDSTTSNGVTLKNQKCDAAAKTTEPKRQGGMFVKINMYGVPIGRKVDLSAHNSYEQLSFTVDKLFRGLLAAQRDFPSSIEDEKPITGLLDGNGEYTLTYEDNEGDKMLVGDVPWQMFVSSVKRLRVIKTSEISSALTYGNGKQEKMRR
Chain of UniProt Q8L7G0 (whole entry, looked up): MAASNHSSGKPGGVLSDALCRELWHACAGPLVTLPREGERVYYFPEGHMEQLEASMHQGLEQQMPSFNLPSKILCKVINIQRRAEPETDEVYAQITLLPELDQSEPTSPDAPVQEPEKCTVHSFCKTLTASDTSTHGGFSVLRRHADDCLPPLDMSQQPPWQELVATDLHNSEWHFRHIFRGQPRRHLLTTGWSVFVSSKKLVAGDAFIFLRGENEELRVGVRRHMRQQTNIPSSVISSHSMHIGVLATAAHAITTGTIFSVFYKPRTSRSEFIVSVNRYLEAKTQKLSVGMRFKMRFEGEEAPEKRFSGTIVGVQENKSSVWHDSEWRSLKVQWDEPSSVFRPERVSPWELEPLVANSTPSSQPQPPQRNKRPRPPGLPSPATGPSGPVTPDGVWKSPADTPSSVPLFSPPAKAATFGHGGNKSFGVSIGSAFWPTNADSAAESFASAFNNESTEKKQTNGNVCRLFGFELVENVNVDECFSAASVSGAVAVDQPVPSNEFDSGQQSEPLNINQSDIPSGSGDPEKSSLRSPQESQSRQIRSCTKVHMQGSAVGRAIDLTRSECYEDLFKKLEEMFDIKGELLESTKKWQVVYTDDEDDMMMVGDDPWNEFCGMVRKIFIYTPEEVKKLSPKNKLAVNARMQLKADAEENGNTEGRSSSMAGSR
Chain of UniProt Q93YR9 (whole entry, looked up): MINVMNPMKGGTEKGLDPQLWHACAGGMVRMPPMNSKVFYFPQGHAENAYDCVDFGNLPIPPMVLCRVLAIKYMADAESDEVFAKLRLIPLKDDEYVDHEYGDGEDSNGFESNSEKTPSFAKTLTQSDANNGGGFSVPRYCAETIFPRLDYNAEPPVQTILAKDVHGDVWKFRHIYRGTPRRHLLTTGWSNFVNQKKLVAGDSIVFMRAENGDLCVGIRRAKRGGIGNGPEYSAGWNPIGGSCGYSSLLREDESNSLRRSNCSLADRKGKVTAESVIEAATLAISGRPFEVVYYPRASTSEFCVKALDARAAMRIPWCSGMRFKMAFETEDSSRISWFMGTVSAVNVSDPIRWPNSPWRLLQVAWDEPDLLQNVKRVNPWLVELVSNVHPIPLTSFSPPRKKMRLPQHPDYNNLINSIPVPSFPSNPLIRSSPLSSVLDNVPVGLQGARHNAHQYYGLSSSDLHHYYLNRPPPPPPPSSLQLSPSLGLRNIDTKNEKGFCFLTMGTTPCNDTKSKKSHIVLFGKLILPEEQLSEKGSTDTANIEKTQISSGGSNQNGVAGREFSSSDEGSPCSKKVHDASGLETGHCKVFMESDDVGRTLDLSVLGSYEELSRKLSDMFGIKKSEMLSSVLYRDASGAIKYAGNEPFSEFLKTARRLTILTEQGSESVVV
Chain of UniProt Q9XED8 (whole entry, looked up): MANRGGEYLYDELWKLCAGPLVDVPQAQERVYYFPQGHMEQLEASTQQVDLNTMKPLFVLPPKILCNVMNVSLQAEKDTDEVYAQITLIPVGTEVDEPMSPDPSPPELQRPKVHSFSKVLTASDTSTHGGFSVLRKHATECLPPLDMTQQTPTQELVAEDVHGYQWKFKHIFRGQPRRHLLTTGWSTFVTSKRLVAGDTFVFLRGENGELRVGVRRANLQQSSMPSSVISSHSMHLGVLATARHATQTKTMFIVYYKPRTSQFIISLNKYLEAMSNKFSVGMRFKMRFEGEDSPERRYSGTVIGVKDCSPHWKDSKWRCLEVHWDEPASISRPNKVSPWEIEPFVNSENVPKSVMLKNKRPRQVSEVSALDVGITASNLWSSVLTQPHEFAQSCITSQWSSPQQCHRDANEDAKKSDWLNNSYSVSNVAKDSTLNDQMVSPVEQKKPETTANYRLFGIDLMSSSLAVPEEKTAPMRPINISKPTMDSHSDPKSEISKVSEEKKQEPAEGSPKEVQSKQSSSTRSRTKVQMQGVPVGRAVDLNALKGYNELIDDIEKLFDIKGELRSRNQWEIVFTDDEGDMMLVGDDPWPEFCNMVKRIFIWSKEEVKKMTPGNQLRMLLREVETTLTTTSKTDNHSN
Chain of UniProt Q8RYC8 (whole entry, looked up): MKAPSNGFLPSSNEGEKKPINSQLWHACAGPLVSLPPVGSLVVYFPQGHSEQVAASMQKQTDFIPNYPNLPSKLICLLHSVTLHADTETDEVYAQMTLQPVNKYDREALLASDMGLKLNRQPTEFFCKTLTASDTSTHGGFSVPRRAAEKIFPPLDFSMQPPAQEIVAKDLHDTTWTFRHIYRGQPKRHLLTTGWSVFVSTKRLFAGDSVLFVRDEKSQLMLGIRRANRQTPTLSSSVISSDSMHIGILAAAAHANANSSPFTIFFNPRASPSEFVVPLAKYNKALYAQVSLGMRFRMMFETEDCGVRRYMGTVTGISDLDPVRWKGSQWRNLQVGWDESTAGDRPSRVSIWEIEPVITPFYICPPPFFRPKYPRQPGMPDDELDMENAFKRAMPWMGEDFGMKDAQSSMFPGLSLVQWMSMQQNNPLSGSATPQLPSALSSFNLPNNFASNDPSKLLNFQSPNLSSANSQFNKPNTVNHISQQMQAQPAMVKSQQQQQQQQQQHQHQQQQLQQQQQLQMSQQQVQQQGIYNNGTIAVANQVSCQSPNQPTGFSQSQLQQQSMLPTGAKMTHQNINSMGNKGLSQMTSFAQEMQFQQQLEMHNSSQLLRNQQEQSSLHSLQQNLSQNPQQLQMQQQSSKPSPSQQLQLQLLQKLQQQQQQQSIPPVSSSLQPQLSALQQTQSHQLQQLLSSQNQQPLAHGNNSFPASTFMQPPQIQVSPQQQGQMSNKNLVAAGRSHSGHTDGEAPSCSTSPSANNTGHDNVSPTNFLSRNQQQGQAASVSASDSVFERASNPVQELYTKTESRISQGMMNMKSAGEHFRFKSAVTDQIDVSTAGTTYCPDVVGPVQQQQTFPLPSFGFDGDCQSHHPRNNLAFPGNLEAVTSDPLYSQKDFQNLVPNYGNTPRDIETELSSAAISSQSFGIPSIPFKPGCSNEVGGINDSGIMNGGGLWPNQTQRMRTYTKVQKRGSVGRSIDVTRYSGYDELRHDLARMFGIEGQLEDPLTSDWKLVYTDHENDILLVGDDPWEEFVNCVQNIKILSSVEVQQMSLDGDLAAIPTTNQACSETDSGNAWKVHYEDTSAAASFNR
Chain of UniProt P93024 (whole entry, looked up): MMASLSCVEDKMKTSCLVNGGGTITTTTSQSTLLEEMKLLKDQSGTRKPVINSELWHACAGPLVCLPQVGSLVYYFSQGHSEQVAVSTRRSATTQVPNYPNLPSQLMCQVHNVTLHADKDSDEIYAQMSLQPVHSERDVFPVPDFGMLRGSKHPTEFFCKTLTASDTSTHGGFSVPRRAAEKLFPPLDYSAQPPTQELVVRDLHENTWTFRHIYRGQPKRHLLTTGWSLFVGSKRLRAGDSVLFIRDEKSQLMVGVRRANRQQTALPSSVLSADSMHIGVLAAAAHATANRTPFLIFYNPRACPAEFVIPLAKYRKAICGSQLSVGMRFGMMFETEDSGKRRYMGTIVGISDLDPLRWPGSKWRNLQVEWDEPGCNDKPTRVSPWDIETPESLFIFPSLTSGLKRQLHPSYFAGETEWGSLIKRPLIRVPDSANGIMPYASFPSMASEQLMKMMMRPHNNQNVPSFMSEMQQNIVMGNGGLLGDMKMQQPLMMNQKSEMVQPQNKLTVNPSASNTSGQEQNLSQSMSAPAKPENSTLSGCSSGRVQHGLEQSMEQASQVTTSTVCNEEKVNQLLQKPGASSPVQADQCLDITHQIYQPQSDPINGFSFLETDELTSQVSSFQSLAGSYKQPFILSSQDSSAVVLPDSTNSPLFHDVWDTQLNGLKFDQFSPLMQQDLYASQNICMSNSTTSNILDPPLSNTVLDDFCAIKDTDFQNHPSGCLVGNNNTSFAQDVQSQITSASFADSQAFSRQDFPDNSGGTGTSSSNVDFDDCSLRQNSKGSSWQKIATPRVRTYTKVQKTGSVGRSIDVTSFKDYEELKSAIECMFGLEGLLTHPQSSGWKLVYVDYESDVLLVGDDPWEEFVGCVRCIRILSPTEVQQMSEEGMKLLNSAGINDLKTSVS

Block 1 — technique: protein-binding microarray; molecule type: double-stranded DNA, one strand shown; medium: in vitro; concentration: not given; direction: higher = stronger binding
Target: Protein C-ets-1 (ETS1, Homo sapiens, UniProt P14921, residues 1-441, Y397A, full length assumed)
Setting: k-mer, scored over probes, only values ≥0.25
Residues (chain): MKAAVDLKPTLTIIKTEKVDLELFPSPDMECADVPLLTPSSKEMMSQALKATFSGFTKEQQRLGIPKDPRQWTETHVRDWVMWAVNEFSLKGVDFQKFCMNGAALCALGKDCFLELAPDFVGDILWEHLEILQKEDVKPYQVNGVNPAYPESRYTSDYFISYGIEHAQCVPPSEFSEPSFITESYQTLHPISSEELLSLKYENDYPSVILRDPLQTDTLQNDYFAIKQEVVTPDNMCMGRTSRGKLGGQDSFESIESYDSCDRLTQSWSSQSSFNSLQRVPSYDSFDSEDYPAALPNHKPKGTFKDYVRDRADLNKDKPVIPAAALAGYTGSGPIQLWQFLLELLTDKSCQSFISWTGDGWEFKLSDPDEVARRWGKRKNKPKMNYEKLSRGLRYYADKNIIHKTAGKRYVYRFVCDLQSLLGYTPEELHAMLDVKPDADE
Oligonucleotide	E-score
GCATTTCC	0.314
TATCCGCA	0.3
ACATGACG	0.262
GCAGACAA	0.337
GGGCGCCA	0.251
TACTACGA	0.275
TTCCGCAA	0.276
GGAAACAC	0.319

Block 2 — technique: RNA Bind-n-Seq; molecule type: RNA; medium: in vitro; concentration: 20 nM; setting: 6-mer, flanks averaged, single round; together with: 150 mM LiCl; baseline: input library; direction: higher = stronger binding
Target: TAR DNA-binding protein 43, full length, His tag (TARDBP, Homo sapiens, UniProt Q13148, residues 1-414)
Oligonucleotide	6-mer enrichment (R)
CGUAUC	0.855
ACAAGC	0.834
AACGCA	0.821
CGGUAC	0.88
CCAUUC	0.909
GUCAUG	0.976
GACGUU	0.911
CUUUAG	0.933

Block 3 — technique: two-hybrid; direction: higher = firmer interaction
Molecule: IAA9 (Arabidopsis thaliana, UniProt Q38827)
Chain of UniProt Q38827 (whole entry, looked up): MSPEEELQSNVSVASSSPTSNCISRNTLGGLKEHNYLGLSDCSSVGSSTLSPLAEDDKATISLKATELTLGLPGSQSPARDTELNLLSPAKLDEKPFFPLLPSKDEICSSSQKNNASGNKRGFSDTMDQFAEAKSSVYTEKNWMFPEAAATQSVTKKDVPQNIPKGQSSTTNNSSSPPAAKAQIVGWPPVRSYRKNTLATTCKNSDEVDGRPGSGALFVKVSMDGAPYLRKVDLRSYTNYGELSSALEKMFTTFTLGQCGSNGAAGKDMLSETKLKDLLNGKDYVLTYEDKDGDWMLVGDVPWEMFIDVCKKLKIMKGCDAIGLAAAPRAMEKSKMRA
partner	conditions	how to read	positive tests
ARF9 519-638 (Arabidopsis thaliana, UniProt Q9XED8)	weak activation fusion	baseline: out of 0 tests	0
IAA18 (Arabidopsis thaliana, UniProt O24408)	–	baseline: out of 2 tests	2
ARF1 538-665 (Arabidopsis thaliana, UniProt Q8L7G0)	–	baseline: out of 4 tests	0
ARF16 570-670 (Arabidopsis thaliana, UniProt Q93YR9)	–	baseline: out of 4 tests	0
ARF19 948-1086 (Arabidopsis thaliana, UniProt Q8RYC8)	–	baseline: out of 2 tests	1
IAA26 (Arabidopsis thaliana, UniProt Q8LAL2)	–	baseline: out of 4 tests	4
IAA13 (Arabidopsis thaliana, UniProt Q38831)	–	baseline: out of 2 tests	2
ARF5 788-902 (Arabidopsis thaliana, UniProt P93024)	–	baseline: out of 0 tests	0

Further values, each from its own experiment
Parent: viral docking peptide; TSVRRALFTGGSD; partner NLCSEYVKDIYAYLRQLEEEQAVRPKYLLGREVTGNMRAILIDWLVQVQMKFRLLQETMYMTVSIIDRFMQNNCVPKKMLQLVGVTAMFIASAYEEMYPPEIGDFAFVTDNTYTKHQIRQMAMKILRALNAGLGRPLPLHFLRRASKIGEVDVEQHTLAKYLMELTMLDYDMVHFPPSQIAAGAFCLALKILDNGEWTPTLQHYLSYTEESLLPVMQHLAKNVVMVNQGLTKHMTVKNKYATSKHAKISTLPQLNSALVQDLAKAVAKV
Substitution	target	assay	test system	conditions	how to read	endpoint	value
TSVRRALFTLGSD [G10L]	CCNB1, cyclin fold, Cln2 fusion (human)	yeast growth competition, sequencing	yeast	strong parent motif	baseline: not given, higher = stronger binding	normalised enrichment score	1.28

Repeated from above (block 3):
partner	conditions	how to read	positive tests
ARF5 788-902 (Arabidopsis thaliana, UniProt P93024)	–	baseline: out of 0 tests	0
ARF16 570-670 (Arabidopsis thaliana, UniProt Q93YR9)	–	baseline: out of 4 tests	0
IAA26 (Arabidopsis thaliana, UniProt Q8LAL2)	–	baseline: out of 4 tests	4
ARF1 538-665 (Arabidopsis thaliana, UniProt Q8L7G0)	–	baseline: out of 4 tests	0
